# Assay results pooled from the literature.
# Numbered parts are unrelated; each lists some results of a single study.
# Sequence of UniProt Q14164 (whole entry, looked up): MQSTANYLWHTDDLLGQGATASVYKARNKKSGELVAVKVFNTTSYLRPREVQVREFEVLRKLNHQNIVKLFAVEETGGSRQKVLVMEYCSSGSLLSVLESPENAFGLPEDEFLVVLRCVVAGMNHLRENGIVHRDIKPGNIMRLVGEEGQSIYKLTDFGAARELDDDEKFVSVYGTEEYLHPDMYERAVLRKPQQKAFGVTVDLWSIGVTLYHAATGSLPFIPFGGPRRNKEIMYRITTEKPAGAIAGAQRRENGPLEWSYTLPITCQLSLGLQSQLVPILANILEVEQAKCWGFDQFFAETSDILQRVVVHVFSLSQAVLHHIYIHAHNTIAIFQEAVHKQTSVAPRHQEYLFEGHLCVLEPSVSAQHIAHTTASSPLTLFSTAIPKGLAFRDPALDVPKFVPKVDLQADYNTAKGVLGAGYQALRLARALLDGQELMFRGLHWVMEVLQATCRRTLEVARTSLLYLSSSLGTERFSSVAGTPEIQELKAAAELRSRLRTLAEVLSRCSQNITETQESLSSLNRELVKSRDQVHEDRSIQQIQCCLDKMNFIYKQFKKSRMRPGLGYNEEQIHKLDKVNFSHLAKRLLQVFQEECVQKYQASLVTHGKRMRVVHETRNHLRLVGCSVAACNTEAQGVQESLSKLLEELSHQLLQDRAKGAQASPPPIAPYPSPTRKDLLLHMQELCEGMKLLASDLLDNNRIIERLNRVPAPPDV
# Sequence of UniProt Q8IVW4 (whole entry, looked up): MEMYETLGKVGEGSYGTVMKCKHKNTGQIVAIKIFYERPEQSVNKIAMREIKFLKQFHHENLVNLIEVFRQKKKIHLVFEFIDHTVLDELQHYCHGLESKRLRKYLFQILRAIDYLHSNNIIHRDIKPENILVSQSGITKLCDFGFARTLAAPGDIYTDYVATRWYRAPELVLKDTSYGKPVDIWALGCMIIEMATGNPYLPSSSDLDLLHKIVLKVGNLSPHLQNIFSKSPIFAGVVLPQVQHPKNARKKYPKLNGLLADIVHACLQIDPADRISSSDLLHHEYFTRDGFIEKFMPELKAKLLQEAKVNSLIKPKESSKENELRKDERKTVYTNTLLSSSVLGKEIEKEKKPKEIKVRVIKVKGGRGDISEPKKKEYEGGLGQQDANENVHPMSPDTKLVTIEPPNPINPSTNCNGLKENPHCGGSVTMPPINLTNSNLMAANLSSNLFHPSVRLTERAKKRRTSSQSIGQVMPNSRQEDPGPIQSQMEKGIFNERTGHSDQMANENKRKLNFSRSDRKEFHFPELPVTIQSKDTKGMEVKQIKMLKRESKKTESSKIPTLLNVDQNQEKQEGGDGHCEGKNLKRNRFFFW
# Sequence of UniProt Q8N752 (whole entry, looked up): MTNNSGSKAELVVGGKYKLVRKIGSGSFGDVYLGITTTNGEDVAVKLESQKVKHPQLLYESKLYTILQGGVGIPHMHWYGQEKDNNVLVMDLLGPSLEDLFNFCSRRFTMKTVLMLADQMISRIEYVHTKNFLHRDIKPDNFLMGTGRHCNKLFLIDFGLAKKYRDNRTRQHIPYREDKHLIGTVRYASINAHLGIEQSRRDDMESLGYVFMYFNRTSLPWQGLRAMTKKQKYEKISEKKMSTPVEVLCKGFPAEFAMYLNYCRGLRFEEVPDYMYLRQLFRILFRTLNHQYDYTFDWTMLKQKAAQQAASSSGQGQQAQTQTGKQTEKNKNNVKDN
# Sequence of UniProt D3Z7P3 (whole entry, looked up): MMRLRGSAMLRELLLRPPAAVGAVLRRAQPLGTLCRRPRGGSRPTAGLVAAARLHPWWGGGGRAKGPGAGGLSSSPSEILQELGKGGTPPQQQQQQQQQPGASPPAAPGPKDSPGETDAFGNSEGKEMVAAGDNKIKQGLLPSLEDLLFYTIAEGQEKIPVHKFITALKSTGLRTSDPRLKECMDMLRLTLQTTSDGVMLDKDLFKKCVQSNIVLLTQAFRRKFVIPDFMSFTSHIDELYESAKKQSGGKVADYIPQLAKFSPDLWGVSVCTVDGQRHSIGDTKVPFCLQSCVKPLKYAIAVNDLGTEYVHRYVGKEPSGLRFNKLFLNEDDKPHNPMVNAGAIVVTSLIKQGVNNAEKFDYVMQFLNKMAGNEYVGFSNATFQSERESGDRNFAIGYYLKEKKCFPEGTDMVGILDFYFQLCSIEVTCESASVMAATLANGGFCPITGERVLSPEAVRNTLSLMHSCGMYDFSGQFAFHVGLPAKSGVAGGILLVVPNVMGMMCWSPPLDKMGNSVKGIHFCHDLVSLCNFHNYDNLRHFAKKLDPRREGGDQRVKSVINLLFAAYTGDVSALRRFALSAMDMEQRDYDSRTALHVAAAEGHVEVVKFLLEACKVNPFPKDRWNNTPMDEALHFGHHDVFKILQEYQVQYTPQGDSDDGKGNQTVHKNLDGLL
# Sequence of UniProt P23443 (whole entry, looked up): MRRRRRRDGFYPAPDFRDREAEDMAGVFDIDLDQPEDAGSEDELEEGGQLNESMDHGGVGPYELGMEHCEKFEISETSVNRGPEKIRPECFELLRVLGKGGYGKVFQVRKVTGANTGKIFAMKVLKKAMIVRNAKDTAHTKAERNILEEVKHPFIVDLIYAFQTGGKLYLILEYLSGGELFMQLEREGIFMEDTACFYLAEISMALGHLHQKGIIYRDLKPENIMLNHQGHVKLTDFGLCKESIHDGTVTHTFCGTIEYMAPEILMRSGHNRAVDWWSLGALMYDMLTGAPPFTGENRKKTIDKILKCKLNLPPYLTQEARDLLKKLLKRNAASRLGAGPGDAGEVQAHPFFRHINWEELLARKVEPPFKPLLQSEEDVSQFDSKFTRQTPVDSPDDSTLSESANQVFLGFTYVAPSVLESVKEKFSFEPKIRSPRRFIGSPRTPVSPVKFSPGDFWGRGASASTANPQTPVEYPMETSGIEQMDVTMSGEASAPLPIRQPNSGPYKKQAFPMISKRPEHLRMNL
# Sequence of UniProt Q13555 (whole entry, looked up): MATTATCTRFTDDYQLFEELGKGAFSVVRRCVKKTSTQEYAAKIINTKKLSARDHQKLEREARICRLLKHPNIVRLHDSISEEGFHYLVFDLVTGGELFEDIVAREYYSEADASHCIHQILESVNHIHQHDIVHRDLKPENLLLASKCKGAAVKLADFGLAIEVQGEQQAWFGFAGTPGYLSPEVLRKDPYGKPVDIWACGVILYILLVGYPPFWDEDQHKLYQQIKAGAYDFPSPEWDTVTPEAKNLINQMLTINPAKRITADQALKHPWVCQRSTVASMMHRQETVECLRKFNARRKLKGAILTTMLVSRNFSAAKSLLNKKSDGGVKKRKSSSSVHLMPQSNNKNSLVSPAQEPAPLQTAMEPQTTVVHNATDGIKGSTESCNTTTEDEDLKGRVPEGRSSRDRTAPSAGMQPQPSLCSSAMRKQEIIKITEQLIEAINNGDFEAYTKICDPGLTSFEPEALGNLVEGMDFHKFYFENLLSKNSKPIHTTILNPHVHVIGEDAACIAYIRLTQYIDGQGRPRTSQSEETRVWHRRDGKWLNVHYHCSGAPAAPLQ
# Sequence of UniProt P32298 (whole entry, looked up): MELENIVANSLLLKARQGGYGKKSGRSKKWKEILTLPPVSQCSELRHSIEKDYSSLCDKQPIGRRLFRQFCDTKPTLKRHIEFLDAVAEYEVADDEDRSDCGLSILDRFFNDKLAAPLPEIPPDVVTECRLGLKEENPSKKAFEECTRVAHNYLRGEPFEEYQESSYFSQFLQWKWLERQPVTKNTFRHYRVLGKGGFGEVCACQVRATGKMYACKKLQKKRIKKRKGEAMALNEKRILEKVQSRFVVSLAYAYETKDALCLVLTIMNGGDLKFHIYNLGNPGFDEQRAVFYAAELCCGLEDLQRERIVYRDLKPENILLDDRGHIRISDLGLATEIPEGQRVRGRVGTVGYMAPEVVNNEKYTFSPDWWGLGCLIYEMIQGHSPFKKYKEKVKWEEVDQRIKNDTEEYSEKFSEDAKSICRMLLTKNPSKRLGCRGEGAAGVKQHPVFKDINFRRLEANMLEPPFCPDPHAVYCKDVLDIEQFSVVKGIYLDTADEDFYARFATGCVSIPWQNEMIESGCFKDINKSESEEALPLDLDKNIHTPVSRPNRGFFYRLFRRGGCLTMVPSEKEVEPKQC

# Series 1 — mode: inhibitor; tested at: 10 µM; relative to: control
# Target: Diamine acetyltransferase 1 (Homo sapiens, UniProt P21673)
# Construct (P21673 1-171): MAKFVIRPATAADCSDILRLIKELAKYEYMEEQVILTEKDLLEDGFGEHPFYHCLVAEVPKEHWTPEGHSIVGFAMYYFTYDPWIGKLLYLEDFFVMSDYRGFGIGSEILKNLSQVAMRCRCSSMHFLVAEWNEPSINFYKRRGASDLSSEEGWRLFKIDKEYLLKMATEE
SMILES,remaining activity [%]
O=c1ccc2ccc(O)c(O)c2o1,100
COC(=O)C1=CO[C@@H](O[C@@H]2O[C@H](CO)[C@@H](O)[C@H](O)[C@H]2O)[C@@H]2[C@H](C)O[C@@H](O)C[C@H]12,74
C[C@H](CC(=O)C[C@@H](C)[C@H]1C[C@H](O)[C@@]2(C)C3=C(C(=O)C[C@]12C)[C@@]1(C)CCC(=O)C(C)(C)[C@@H]1C[C@@H]3O)C(=O)O,85.3
O=C(/C=C/c1ccc(O)c(O)c1)O[C@H](Cc1ccc(O)c(O)c1)C(=O)O,89
COc1cc(/C=C/C(=O)OCCc2ccc(O)cc2)ccc1O,83.8
O=C(O)c1c[nH]c2ccccc12,76
C[C@@H](O)[C@H](N)C(=O)O,85

# Series 2 — observed: cell-free assay; method: competition with immobilised ligand; tested at: 0.1 µM
# Structure (SMILES): CS(=O)(=O)N1CCCC(NC(=O)[C@H](CCC2CCCCC2)NC(=O)c2ccc(CNc3ncnc4c3nnn4-c3ccccc3)cc2)C1 (stereo partly shown)
target,remaining binding
"IKBKE (Homo sapiens, UniProt Q14164)",73%
"CDKL3 (Homo sapiens, UniProt Q8IVW4)",96%
"LRRK2 (Homo sapiens, UniProt Q5S007)",51%
"CAMK2G (Homo sapiens, UniProt Q13555)",94%
"Tyrosine-protein kinase ABL1, phosphorylated (ABL1, Homo sapiens, UniProt P00519, Y253F)",84%
"EGFR (Homo sapiens, UniProt P00533, G719C)",86%
"RPS6KB1 (Homo sapiens, UniProt P23443)",100%
"Receptor-type tyrosine-protein kinase FLT3, autoinhibited (FLT3, Homo sapiens, UniProt P36888)",97%
"CSNK1A1L (Homo sapiens, UniProt Q8N752)",100%
"TTK (Homo sapiens, UniProt P33981)",91%
"GRK4 (Homo sapiens, UniProt P32298)",100%

# Series 3 — observed: enzyme activity; mode: inhibitor; tested at: 0.5 µM; relative to: control
# Target: G protein-coupled receptor kinase 5 (GRK5, Homo sapiens, UniProt P34947)
# Sequence of UniProt P34947 (whole entry, looked up): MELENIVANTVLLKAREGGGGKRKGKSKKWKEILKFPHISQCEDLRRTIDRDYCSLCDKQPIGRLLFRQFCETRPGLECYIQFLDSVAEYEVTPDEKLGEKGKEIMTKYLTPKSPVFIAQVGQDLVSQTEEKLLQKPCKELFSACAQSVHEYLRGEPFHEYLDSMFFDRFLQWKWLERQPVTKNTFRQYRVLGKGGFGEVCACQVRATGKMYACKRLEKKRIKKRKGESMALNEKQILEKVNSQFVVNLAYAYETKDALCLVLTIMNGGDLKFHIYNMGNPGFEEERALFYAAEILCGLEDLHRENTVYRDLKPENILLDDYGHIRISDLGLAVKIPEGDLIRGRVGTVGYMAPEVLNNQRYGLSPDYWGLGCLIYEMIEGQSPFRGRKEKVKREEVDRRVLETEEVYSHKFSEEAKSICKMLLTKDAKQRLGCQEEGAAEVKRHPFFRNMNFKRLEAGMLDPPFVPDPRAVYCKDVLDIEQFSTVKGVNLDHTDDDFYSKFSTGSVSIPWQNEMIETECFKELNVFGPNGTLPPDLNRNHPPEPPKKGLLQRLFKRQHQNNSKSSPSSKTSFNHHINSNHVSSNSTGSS
SMILES,remaining activity
O=C1Nc2ccc(Br)cc2/C1=C/c1cc2c([nH]1)CCCC2,106%
O=C1Nc2ccccc2/C1=C\c1c(Cl)[nH]c2ccccc12,109%
O=c1c(-c2ccc(F)cc2)c(-c2ccncc2)[nH]n1-c1ccc(Cl)cc1,90.3%
Cc1ccc(S(=O)(=O)/C=C/C#N)cc1,105%
FC(F)(F)c1ccc(/C=C/c2nc(COc3ccc(CCCCn4ccnn4)cc3)co2)cc1,109%
COc1cc2c(Nc3ccc(Br)cc3F)ncnc2cc1OCC1CCN(C)CC1,95.8%
c1ccc(-c2n[nH]c3c2oc2ccccc23)cc1,123%
N#C/C(=C(/N)SC1C=CC=CC1)c1cccc(C(O)c2ccncc2)c1 (stereo not shown),87.2%
COc1ccc2c(c1)c(C1=C(c3c[nH]c4ccccc34)C(=O)NC1=O)cn2CCCN(C)C,114%
CNc1cc2c(Nc3cccc(Br)c3)ncnc2cn1,120%
COc1cc2c(N3CCN(C(=O)Nc4ccc(OC(C)C)cc4)CC3)ncnc2cc1OCCCN1CCCCC1,106%
C[C@@H](N)[C@H]1CC[C@H](C(=O)Nc2ccncc2)CC1,108%
O=C(c1ccccc1)c1ccc(N2CCOCC2)cc1O,105%
O=c1cc(N2CCOCC2)oc2c(-c3ccccc3)cccc12,91.6%
Clc1ccc(Nc2nnc(Cc3ccncc3)c3ccccc23)cc1,110%
O=C(O)/C=C/c1cc(Br)c(Br)c(Br)c1Br,104%
CC(C)(C)c1nc2c3cc[nH]c(=O)c3c3cc(F)ccc3c2[nH]1,72.9%
N#CC(c1ccnc(NCCc2cccnc2)n1)c1nc2ccccc2s1 (stereo not shown),93.8%
O=C1NC(=O)c2c1c1c3ccccc3[nH]c1n1cncc21,94.4%
CCCCc1c(-c2ccc(O)cc2)[nH]c2nccnc12,104%
O=Nc1c(-c2c(O)[nH]c3ccccc23)[nH]c2ccccc12,103%
CCCNC(=O)Nc1ccc(Oc2ncnc3cc(OC)c(OC)cc23)cc1Cl,105%
CCCCc1c(-c2ccc(OC)cc2)[nH]c2nccnc12,105%
O=C1Cc2c([nH]c3ccc(Br)cc23)-c2ccccc2N1,97%
O=C1NC(=O)c2c1c1c3ccccc3[nH]c1c1[nH]c3cc(Br)ccc3c21,97%

# Series 4 — method: PRP chromatography; setting: linear fit, 1 mL
SMILES,"logD 1,9-decadiene/water [log units]"
CC(C)C[C@@H]1NC(=O)[C@H](C)NC(=O)[C@@H](CC(C)C)NC(=O)[C@@H](CC(C)C)NC(=O)[C@H](C)NC(=O)[C@H](CC(C)C)NC(=O)[C@@H](CC(C)C)NC1=O,0.346
CC(C)C[C@@H]1NC(=O)[C@H](CC(C)C)NC(=O)[C@H](CC(C)C)NC(=O)[C@H](Cc2cscn2)NC(=O)[C@@H](Cc2cscn2)NC(=O)[C@@H](CC(C)C)NC(=O)[C@H](C)NC1=O,0.196
CC(C)C[C@@H]1NC(=O)[C@H](C)NC(=O)[C@@H](CC(C)C)NC(=O)[C@H](C)NC(=O)[C@@H](CCC(=O)N2CCCC2)NC(=O)[C@H](CC(C)C)NC(=O)[C@@H](CC(C)C)NC1=O,-1.56
CC(C)C[C@@H]1NC(=O)[C@H](C)NC(=O)[C@@H](CC(C)C)NC(=O)[C@H](C)NC(=O)[C@H](C(C)C)NC(=O)[C@H](CC(C)C)NC(=O)[C@@H](CC(C)C)NC1=O,-0.77
CC(C)C[C@@H]1NC(=O)[C@H](CC(C)C)NC(=O)[C@H](CC(C)C)NC(=O)[C@H](CC(C)C)NC(=O)[C@@H](Cc2cscn2)NC(=O)[C@H](CCC(=O)N2CCCC2)NC(=O)[C@H](C)NC1=O,-0.619
CC(C)C[C@@H]1NC(=O)[C@H](C)NC(=O)[C@H](Cc2cscn2)NC(=O)[C@H](C)NC(=O)[C@@H](CCC(=O)N2CCCC2)NC(=O)[C@H](CC(C)C)NC(=O)[C@@H](CC(C)C)NC1=O,-2.72
CC(C)C[C@@H]1NC(=O)[C@H](CC(C)C)NC(=O)[C@H](CC(C)C)NC(=O)[C@H](C(C)C)NC(=O)[C@H](C)NC(=O)[C@@H](CC(C)C)NC(=O)[C@H](C)NC1=O,-0.77
CC(C)C[C@@H]1NC(=O)[C@H](CC(C)C)NC(=O)[C@@H](CC(C)C)NC(=O)[C@@H](C)NC(=O)[C@H](C(C)C)NC(=O)[C@H](Cc2cscn2)NC(=O)[C@H](C)NC1=O,-1.84

# Single results of other studies
Structure (SMILES),target,species,medium,route,dose,quantity,value
CC(=O)N[C@@H](Cc1c[nH]c2ccccc12)C(=O)N[C@@H](CCC(=O)C=[N+]=[N-])C(=O)OC(C)C,"Glutaminase kidney isoform, mitochondrial (Mus musculus, UniProt D3Z7P3)","C57BL/6 CES1-/- mouse, EL4 tumour",tumour,subcutaneous,dose not given,enzyme activity,557 fmol/mg/h

# Excerpt of the above (series 3):
SMILES,remaining activity
CNc1cc2c(Nc3cccc(Br)c3)ncnc2cn1,120%
COc1cc2c(N3CCN(C(=O)Nc4ccc(OC(C)C)cc4)CC3)ncnc2cc1OCCCN1CCCCC1,106%
C[C@@H](N)[C@H]1CC[C@H](C(=O)Nc2ccncc2)CC1,108%
O=C(c1ccccc1)c1ccc(N2CCOCC2)cc1O,105%
O=c1cc(N2CCOCC2)oc2c(-c3ccccc3)cccc12,91.6%
Clc1ccc(Nc2nnc(Cc3ccncc3)c3ccccc23)cc1,110%
